Assay results of several laboratories.
Lines come from different studies, so protocols differ. Several values in a cell are separate wells, animals, samples, runs or records. ± marks the error that the study gave. No end group written: not given here.
B1: disulfide; chain GLPVCGETCVGGTCNTPGCTCSWPVCTRN (disulfide (positions not given here))
B2: bicyclic; chain AATCHCRRSCYSTEYSYGTCTVMGINHRFCCL (also: bicyclic or more (positions not given here))

Substance	target or system	assay	test system	setting	how to read	quantity	result
KTKEGVVHGVATVA		far-UV circular dichroism, item: β-sheet	peptide, PBS	10 µM, pH 7.4, 25 °C		secondary structure content	45.6%
coproporphyrin I			human, plasma	concentration not given, control day		lowest mean plasma concentration	0.653 ± 0.041 nM
caspofungin			adult ICU patients, mITT, serum	dose not given, EOT		albumin	26.3 g/L
LVHYTHCGSLGV	Epstein-Barr virus		peptide, EBV-infected humanized B-NDG mice	20 mg/kg, day 14		body weight	23.5 g and 22.4 g
GSGAGICTIV	human SCRIB PDZ3-4 tandem (MBP fusion)	automated holdup	peptide, crude extract	concentration not given, corrected by standard peak, unit not given	relative to: biotin control resin, higher = stronger binding	binding intensity	0.425
Polymyxin B		untargeted LC-MS metabolomics, item: L-ornithine	Sprague-Dawley rat, right cerebral cortex	intracerebroventricular, 0.75 mg/kg, 1 h	relative to: NaCl control	log2 fold change	-4.2
[177Lu]Lu-DOTA-TATE		radio-HPLC	labelling formulation with quenchers	2 h, 50 MBq/nmol		radiochemical purity	97.6 ± 0.6%
B1		RP-HPLC	NH4HCO3 without redox agents	pH 8.5, room temperature, oxidative folding		conversion to native product	not detected
Rilpivirine docusate			Peceol	mean of three		kinetic solubility	~50 mg/mL
benzalkonium chloride			mouse erythrocytes	10 µM, 30 min, 37 °C		hemolysis	~7%
GSGAGIATEV	human SCRIB PDZ3-4 tandem (MBP fusion)	automated holdup	peptide, purified PDZ protein	concentration not given, unit not given	relative to: biotin control resin, higher = stronger binding	binding intensity	0.771
GPSQPPYPGDDAPVEDLIRFYDNLQQYLNVVTRHRY		CD thermal denaturation	peptide, sodium phosphate buffer with NaCl	30 µM, pH 7.4		melting temperature	47.7 ± 1.6 °C
coproporphyrin III			healthy human volunteers, spot urine	dose not given, pre-dose, median, added: ezetimibe plus rifampin		urine concentration	6.7 nM
B2		sedimentation velocity AUC	10 mM sodium phosphate	160 µM, pH 7.4, 20 °C		sedimentation coefficient S20,w	0.847 S
FNA / CGLSGLGVA-NH2 ([18F]FNA-labelled, C-amide)		ex vivo gamma counting	peptide, glioblastoma mouse model, lung	60 min post injection, added: 500-fold excess CooP blocking		tissue uptake	0.29 %ID/g
Teicoplanin		ultrafiltration, UPLC-MS/MS	haematology and ICU patients, patient serum	37 °C		protein binding	79%
CTOP		RP-HPLC	HALO C18 column	25 µM, formic acid/methanol, 25 min gradient		retention time	14.1 min
regorafenib N-β-glucuronide			wild-type mice	oral, regorafenib single dose, molecular weight corrected		metabolite to parent AUC ratio	0.73%

For quick reference, copied from above:
Substance	target or system	assay	test system	setting	how to read	quantity	result
KTKEGVVHGVATVA		far-UV circular dichroism, item: β-sheet	peptide, PBS	10 µM, pH 7.4, 25 °C		secondary structure content	45.6%
coproporphyrin I			human, plasma	concentration not given, control day		lowest mean plasma concentration	0.653 ± 0.041 nM
